Measured values from different studies.
Numbered parts are unrelated; each lists some results of a single study. Changes are numbered by the printed parent chain.

Series 1 — technique: RNA Bind-n-Seq; form: RNA; matrix: in vitro; concentration: 100 nM; relative to: input RNA pool; reading: higher = stronger binding
Target: RING finger protein unkempt homolog, zinc fingers 1-6, SBP tag (UNK, Homo sapiens, UniProt Q9C0B0, residues 30-357)
UniProt Q9C0B0, sequence (30-357, looked up): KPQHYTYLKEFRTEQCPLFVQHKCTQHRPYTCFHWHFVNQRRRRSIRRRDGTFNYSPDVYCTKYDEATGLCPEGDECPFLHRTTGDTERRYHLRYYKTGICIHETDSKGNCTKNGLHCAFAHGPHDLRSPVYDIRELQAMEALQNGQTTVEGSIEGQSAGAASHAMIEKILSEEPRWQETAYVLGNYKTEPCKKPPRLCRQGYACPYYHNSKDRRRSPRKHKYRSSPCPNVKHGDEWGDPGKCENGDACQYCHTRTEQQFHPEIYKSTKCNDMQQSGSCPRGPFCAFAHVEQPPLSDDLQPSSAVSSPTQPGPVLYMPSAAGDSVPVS
Notes: RNA with constant flanks, vertebrate orthologous sites, ends assumed
All sequences stand within: GGGAGUUCUACAGUCCGACGAUC … CAACAGAGGAUUGAGCAUCA
Strand	bound/input enrichment
UUACAGUCAUUGAUGGACUCUAUUUUUUUAUUAUUACUUGGACCUCGGUCGUUUUUAUACUAGCAACGAAAAAUGUCUUGUUUUAAUUUGCUUUUUUUGGGGGGUACGGGGUGGGAAGCA	0.842 ratio
AAUCAAUAGGAUUACAUAAUACUAAAGUUGCAGUUGAAAGGAUAUCCAAGUAUGUGUUCGUAGUUACUGAAAGAAUUAUAGCUGUUAUUGCCUUGUAUUUAUAGCCCUUGUUUCAGGUUC	0.795 ratio
AAGUAGUUCUAAGCUUGUUUGCACAGUUCUUUUUUCCAUUGGAGAUGGAAUCCAUUGCCUUAGGUCUUUUUAAAUAGUGUAUUGUUAUUGUUGGGGCUGCCUCUAUGCUUGAAAACCAGU	2.11 ratio
CAUCUCUAAUUUUAUAUGUCCAAAAUGGCUUUGAAUUUUUAAGCAAUGAUUAGUUUUAAUUUGCUCUCCCUCAUAAAAUACAUUUAUAAUUCACCACGGAUAUCUGUCUGAAUUACUUCA	0.799 ratio
AGCUGACUCACUCAUUAGGGAGAGCUGCACAUAUAGCUGUUCUUGAUUCAGAAAUAUUUUUAGAGAAAUUCUUUCUGGUUGCUGCCCUCAAAUAUUUCCAAUAAGAUAAAAACAUUGUUA	0.555 ratio
CCAAGAAACAUAGGAUAUUUGUGCUAUUUAAAAGUGAGCUUUGCUUUUUCUGCAUUUAAAGAGAAUACUUUUAUAUCAGGGGUGCUUUAAAAGUGUGAAGGUGUGCUCUGAUAAUCCCAG	0.519 ratio
ACCCUGGUUGCUUUUUAUCACCUCAGUGAGGUAAGGUCUCCCUUGGCAUGUGGUUGGUUCUAGCGCCAUCAUCCCUAAUCCGUCUUUCCACACUUCCUUGCAUUUCUCCCACACAUAGUC	0.904 ratio
AGGGACGCUUUGAUGUAAAAAUUGAAGUUAAGAGCUGAUCACAAGCACAAAUCUUCCCCACUAGCCAUUUAAAAAGUUAAAAAAGAUACAAAAACAAAAACCUACUAGUCUUGAACAAAC	2.27 ratio

Series 2 — target: CCNB2, cyclin fold, Cln2 fusion (human); technique: yeast growth competition, sequencing; matrix: yeast; notes: strong parent motif; relative to: not given; reading: higher = stronger binding
Starting sequence: CUX1 docking peptide (human); SRIRRELFIEEIQ
Change	normalised enrichment score
SRIRRELFIAEIQ [E10A]	0.747
SRIRRELFAEEIQ [I9A]	-0.0244
SRIRAELFIEEIQ [R5A]	0.3
SRIRREAFIEEIQ [L7A]	0.126
SRIRRELFIEAIQ [E11A]	0.837
SRIRKELLIEEIQ [R5K F8L]	0.795
SRIRRELFIEEAQ [I12A]	0.0931

Series 3 — technique: DHFR PCA, deep sequencing; matrix: yeast; added: (+)-ABA 0.11 µM; relative to: wild-type fitted maximum; reading: higher = stronger binding
Target: ABI1, truncated, D143A, DHFR fusion (Arabidopsis thaliana)
Notes: methotrexate growth selection, single substitutions
Starting sequence: PYL1, truncated, DHFR fusion (Arabidopsis thaliana); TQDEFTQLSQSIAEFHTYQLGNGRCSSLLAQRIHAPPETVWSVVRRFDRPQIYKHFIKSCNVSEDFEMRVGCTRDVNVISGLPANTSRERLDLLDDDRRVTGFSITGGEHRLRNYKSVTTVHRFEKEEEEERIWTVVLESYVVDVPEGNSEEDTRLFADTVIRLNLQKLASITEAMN; partner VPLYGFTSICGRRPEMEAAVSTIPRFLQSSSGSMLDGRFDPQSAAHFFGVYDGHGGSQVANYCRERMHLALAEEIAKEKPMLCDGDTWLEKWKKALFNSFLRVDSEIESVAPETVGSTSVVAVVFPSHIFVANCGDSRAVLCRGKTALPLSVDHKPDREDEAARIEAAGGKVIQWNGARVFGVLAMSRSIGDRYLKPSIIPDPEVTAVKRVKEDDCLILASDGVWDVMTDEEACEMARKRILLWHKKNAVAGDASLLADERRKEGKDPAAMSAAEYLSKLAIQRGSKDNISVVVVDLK
Change	relative binding score
R132L	22.9%
Y115F	27%
A170R	33.1%
E129N	41%
S80E	0.148%
F56C	-8.61%
P50W	5.61%
V78E	-1.43%
I33K	-6.08%
Q19K	45.5%
K58A	15%
Q2C	42.5%
V143T	15.5%
V118K	-0.738%
A13L	20.8%
N22R	40%
K126D	52.9%
S42H	5.56%
N165H	4.46%
I52M	39.3%
Q167G	13.2%
L82I	30.6%
M176I	15.9%
S87R	62.5%
E174F	-11.7%

Series 4 — technique: protein-binding microarray; form: double-stranded DNA, one strand shown; matrix: in vitro; concentration: 940 nM top; notes: 60-bp whole probe; added: salmon DNA 0.4 mg/ml; relative to: random background probes; reading: higher = stronger binding; all sequences stand within: GCCTAGCAC … GTCTTGATTCGCTTGACGCTGCTG
Target: Interferon regulatory factor 5, full length, phosphomimetic (IRF5, Homo sapiens, UniProt Q13568-2, residues 1-514, S451D/S453D/S456D/S462D)
Strand	fitted relative affinity [z-score]
CCTCACTTCCTTCTGCCTGTGTGCTAG	1.48
GACGGTTTCGAATATCGGGACGTGCTA	6.09
TTAGGACTGGGACTGGGTTTGTGCTAG	-0.19
TTAGATATTAGTTTCGATTAGTGCTAG	9.62
TTAGAGATCAGTCTCGATTAGTGCTAG	2.91
TCATCTCAGAATCTCTCACTGTGCTAG	1.21
GAGGATTTCGGGTTTCGAGACGTGCTA	2.05
AGTCCGTGGATTGACCAGATGTGCTAG	-0.367
GACAGTATCGGTCTCGGGACGTGCTAG	8.78

Series 5 — technique: universal PBM; form: double-stranded DNA, one strand shown; matrix: in vitro; concentration: 600 nM; reading: higher = stronger binding
Target: Sal-like protein 4, full length isoform A (SALL4, Homo sapiens, UniProt Q9UJQ4, residues 1-1053)
UniProt Q9UJQ4, sequence (whole entry, looked up): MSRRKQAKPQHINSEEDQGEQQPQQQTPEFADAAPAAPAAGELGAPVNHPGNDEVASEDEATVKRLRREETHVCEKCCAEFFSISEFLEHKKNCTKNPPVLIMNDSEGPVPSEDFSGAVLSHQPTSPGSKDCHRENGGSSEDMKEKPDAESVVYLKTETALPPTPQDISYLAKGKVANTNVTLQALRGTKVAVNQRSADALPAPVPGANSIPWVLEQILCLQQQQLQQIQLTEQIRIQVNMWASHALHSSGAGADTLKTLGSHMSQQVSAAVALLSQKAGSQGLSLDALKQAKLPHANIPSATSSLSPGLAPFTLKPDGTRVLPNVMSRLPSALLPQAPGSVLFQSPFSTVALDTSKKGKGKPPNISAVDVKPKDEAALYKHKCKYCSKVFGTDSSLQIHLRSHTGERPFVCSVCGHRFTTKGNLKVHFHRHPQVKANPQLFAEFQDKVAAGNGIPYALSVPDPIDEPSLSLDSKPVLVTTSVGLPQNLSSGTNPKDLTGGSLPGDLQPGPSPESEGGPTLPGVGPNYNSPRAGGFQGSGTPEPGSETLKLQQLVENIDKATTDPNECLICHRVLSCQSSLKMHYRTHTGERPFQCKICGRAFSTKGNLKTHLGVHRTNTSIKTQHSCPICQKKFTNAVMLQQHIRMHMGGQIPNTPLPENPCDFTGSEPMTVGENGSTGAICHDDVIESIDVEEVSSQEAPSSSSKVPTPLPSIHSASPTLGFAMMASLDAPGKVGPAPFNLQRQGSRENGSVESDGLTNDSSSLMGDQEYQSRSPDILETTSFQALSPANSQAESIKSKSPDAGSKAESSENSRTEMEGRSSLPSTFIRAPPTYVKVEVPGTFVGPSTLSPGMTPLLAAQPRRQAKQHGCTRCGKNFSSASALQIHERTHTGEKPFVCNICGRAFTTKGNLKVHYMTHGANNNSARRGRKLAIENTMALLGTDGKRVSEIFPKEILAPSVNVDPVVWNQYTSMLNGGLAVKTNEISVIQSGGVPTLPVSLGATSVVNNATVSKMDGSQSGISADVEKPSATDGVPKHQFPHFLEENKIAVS
Notes: 8-mer, flanks averaged, mean of replicates
Strand	E-score
AGAGGGTA	-0.064
GTGTTCCA	0.0338
GGTCACAA	-0.115
AACCGATG	-0.139
AAGGGTAT	0.17
AACGAAAG	0.0898
AGTTAGCA	0.127
AGGGTAAG	0.0292
ATGGCCAA	-0.00534
AAGCCTTG	-0.0949
AAAGCGTC	-0.104
AGAATGTA	0.272
TCCCCTCA	-0.104
GGCACCAA	-0.0426
TCCACACA	-0.0284
GCACTCAC	-0.218
AGTTGGCG	-0.0525
CATATTGC	0.215
TACATAGA	0.301
CGTTGAAC	-0.0738
AATTTGAA	0.333
GAATGACC	-0.072
CTCGCTAC	-0.191
CCACTAGG	-0.268
ATAGAACC	0.0712

A few entries again (series 2):
Change	normalised enrichment score
SRIRRELFIAEIQ [E10A]	0.747
SRIRRELFAEEIQ [I9A]	-0.0244
SRIRAELFIEEIQ [R5A]	0.3
SRIRREAFIEEIQ [L7A]	0.126
SRIRRELFIEAIQ [E11A]	0.837
SRIRKELLIEEIQ [R5K F8L]	0.795
SRIRRELFIEEAQ [I12A]	0.0931
